Measured values pooled from the literature.
Every numbered part comes from another study and shows a few of its results, in no order.

Study 1
Target: Centromere-binding protein 1, full length, His-tagged (CBF1, Saccharomyces cerevisiae, UniProt P17106, residues 1-351)
Sequence of UniProt P17106 (whole entry, looked up): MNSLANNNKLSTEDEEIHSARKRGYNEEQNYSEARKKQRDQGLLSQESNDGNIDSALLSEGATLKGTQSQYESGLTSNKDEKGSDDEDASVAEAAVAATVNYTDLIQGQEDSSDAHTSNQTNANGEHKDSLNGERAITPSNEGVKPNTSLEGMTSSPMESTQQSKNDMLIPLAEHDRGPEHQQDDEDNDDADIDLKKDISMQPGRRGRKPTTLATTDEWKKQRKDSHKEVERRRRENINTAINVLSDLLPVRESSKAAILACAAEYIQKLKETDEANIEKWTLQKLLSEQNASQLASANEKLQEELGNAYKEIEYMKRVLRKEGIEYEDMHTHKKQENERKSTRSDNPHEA
Technique: competition protein-binding microarray
Form: double-stranded DNA, one strand shown
Matrix: in vitro
Tested at: 2 µM
Notes: whole 60-bp probe, lowest competitor level
With: Pho4 competitor, 0.05 µM
Reading: higher = stronger binding
| Sequence | fluorescence intensity |
| --- | --- |
| CTTCTGTAAATTTGAGTCGTGGGTGGACGCGCCCCGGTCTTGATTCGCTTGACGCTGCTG | 82.8 a.u. |
| AACAGGCTTGGATGGTACGTGCTTTCCCTTGTCGAGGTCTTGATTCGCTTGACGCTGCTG | 52.5 a.u. |
| CTTTCCCGATCTTGATTCGTGGGTGTAGCACATTTGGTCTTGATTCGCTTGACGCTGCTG | 67 a.u. |
| TAGCCCTGTTACTGTCATGTTAGTTATTATCGTTCTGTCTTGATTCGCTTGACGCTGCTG | 61.1 a.u. |
| TGCGCAACAACTTGCGGAGTGGGTGTATGTCTAGAAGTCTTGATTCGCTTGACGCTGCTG | 54.5 a.u. |
| CTTTCCCGATCTTGCGCTGTGGGTGTAGCACATTTGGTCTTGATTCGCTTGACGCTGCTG | 88.2 a.u. |
| GATTGGGAAATCTCTAATGTGACAGTCCATACTTGTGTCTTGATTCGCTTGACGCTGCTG | 80.7 a.u. |
| AGTATCCTCGACCTACACGTCTTCACCATCGGCACCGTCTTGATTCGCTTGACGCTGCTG | 52.6 a.u. |

Study 2
Target: TAR DNA-binding protein 43, full length, His tag (TARDBP, Homo sapiens, UniProt Q13148, residues 1-414)
Technique: RNA Bind-n-Seq
Form: RNA
Matrix: in vitro
Tested at: 20 nM
Notes: 6-mer, flanks averaged, single round
With: 150 mM KCl
Reference: input library
Reading: higher = stronger binding
| Sequence | 6-mer enrichment (R) |
| --- | --- |
| AUUACU | 0.562 |
| GGUUUA | 0.809 |
| UUUCCU | 0.588 |
| CGCGGG | 3.8 |
| ACUCGA | 0.614 |
| AGCCUU | 0.661 |
| CAAUUA | 0.638 |
| UUAUAA | 0.746 |

Study 3
Cell line: HEK-293T/ACE2
Tested at: concentration not given
Time: 16 (unit not given)
Reference: vehicle
| Structure (SMILES) | viability [%] |
| --- | --- |
| CC(=O)/N=c1/sc(S(N)(=O)=O)nn1C | 99.6 |
| O=C1c2c(O)ccc(O)c2C(=O)c2c(NCCNCCO)ccc(NCCNCCO)c21 | 72.9 |
| C/C(O)=C(\C#N)C(=O)Nc1ccc(C(F)(F)F)cc1 | 96.5 |

Study 4
Target: RING finger protein unkempt homolog, zinc fingers 1-6, GST-SBP tag (UNK, Homo sapiens, UniProt Q9C0B0, residues 30-357)
Technique: RNA Bind-n-Seq
Form: RNA
Matrix: in vitro
Tested at: not given
Notes: RNA with constant flanks, human and mouse sites, ends assumed
Reference: input RNA pool
Reading: higher = stronger binding
Construct (chain): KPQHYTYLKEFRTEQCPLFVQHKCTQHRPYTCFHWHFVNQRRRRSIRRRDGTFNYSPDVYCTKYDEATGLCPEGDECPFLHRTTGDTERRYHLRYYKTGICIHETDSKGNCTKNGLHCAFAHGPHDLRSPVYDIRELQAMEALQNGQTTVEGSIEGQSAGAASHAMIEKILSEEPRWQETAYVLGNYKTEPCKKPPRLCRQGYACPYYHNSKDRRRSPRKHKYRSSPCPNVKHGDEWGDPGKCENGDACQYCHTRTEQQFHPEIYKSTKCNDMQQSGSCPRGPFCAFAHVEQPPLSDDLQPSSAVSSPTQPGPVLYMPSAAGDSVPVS
| Sequence | bound/input enrichment |
| --- | --- |
| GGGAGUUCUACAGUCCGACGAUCACUCACCCUGAGGAGUCUCCAGGGAUGGAGGUGGGGCAUGCGGCCACUGGUCGGUGCUGCCUGGUCCUGGCCUGGGGCAGAGCCUGUGUGUUCUUCACCUGUGCCUGCUCCUGGUGGUCUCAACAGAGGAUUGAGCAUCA | 0.0735 ratio |
| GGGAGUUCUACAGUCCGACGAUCGUCCCUCCAGCACUUGGGAGUAAUUUGACCGACAAUGUCAUGAUCACAGUAGAUAUUAUUCCUUCAGGUUGGAAUUCAGCUGAUGGUAAAAGUGAUAAAACUAAAAGUGCGCCUUCAAGACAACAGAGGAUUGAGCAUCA | 0.27 ratio |
| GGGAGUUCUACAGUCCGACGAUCGACGACUAUGAAGCUGCUUCUGAUUUUUAUAGGAAGGGAGUUGAUUUACUCCUAGAAGGUGUUCAAGGAGAGUCAAGCCCUACCCGUCGAGAAGCUGUGAAGAGAAGAACAGCCGAGUACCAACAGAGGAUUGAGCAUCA | 0.16 ratio |
| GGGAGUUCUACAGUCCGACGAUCUCUUCAAUAAACUUAGGAAAGUGUGCUCAGGAAGCAGGCUGAGCUGUCCUUUAUUAAUAUUAAUAUUGAUCUCAGAUUCGUCACCAUACAUUUCUUCCCCCUUUAUCUUUUCUUCUCCCUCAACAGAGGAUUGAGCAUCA | 0.829 ratio |
| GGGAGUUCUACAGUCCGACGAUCAAAAUAGUCCGAUGCCAUGAACAUAUAGAAAUCCUUACAGUAAAUGGAGAAUUACUCUUUUUUAGACAAAGAGAAGGGCCUUUUUAUCCAACCCUAAGAUUACUUCACAAAUAUCCUUUUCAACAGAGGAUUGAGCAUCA | 0.731 ratio |
| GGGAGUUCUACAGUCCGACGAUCAGUUUCAUCAUUUGGGUUCUCACACAGUGGGCUUACCCAGAGUGGAGCACACCUCCGGGGCUUGUGGCUGCUGCUGUGUAGACGCCUGCAUCUGUGCUGCGUGUGUGGUGCGUGUGGCUGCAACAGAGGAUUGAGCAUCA | 0.15 ratio |
| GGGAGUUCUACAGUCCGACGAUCCAUUUUGUGUUUGUGUGAACACGCAGCGCUCAGUGGUGCAUGCCAUUUCCGUGUGGGUUGCUGUUUCUGCUCCUCACUGGUCUUACGUGUUUCCCUUUCCUUCGUUUGGUUGGUUGGUGGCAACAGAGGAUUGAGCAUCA | 0.115 ratio |
| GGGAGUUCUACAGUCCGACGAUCUGUAUUCGAUAGAUCUCUACAACUAUGCCCCUUAUCGUAGGGAAUACUCAUAACUUUGUGUUAGCACGAUGGAGGAUACAAUGCUUUGCAGCAUAAGAGAGAAAAUAGUUCUACUAGCCACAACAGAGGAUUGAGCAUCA | 0.564 ratio |

Study 5
Target: Replicase polyprotein 1ab, nsp13 helicase (rep, Severe acute respiratory syndrome coronavirus 2, UniProt P0DTD1)
Action: inhibitor
Tested at: 20 µM
| Structure (SMILES) | inhibition [%] |
| --- | --- |
| CSc1ccc(C(=O)/C=C/c2cc(C)c(OC(C)(C)C(=O)O)c(C)c2)cc1 | 1.31 |
| CN/C(=N\c1ccc(C2=NNC(=O)CC2C)cc1)NC#N (centres unmarked) | 7.61 |
| O=C1NC(=O)/C(=C/c2cccc(C(F)(F)F)c2)S1 | 4.72 |
| O=C(Oc1ccc(Br)cc1)N1CCN2CCC1CC2 | 4.07 |
| COc1cccc2c1C(=O)c1c(O)c3c(c(O)c1C2=O)C[C@@](O)(C(=O)CO)C[C@@H]3O[C@H]1C[C@H](N2CCO[C@H](OC)C2)[C@H](O)[C@H](C)O1 | 92.3 |
| C[C@@H]1CC[C@@]2(NC1)O[C@H]1C[C@H]3[C@@H]4CC=C5C[C@@H](O[C@@H]6O[C@H](CO)[C@@H](O[C@@H]7O[C@@H](C)[C@H](O)[C@@H](O)[C@H]7O)[C@H](O)[C@H]6O[C@@H]6O[C@@H](C)[C@H](O)[C@@H](O)[C@H]6O)CC[C@]5(C)[C@H]4CC[C@]3(C)[C@H]1[C@@H]2C | 19.9 |
| C[C@@H]1CC[C@@]2(OC1)O[C@H]1C[C@H]3[C@@H]4CC=C5C[C@@H](O[C@@H]6O[C@H](CO)[C@@H](O[C@@H]7O[C@@H](C)[C@H](O)[C@@H](O)[C@H]7O)[C@H](O)[C@H]6O[C@@H]6O[C@@H](C)[C@H](O)[C@@H](O)[C@H]6O)CC[C@]5(C)[C@H]4CC[C@]3(C)[C@H]1[C@@H]2C | 5.29 |
| CCn1cc(C(=O)O)c(=O)c2ccc(C)nc21 | 0.97 |
| CC(=O)N1CCC(C(=O)N(CCCN2CCC(Cc3ccc(C(N)=O)cc3)CC2)c2ccc(C)c(Cl)c2)CC1 | 7.54 |
| N[C@@H](CSS(=O)(=O)O)C(=O)O | 3.84 |
| C[C@H]1[C@@H](O)O[C@@H]2O[C@@]3(C)CC[C@H]4[C@H](C)CC[C@@H]1[C@@]24OO3 | 8.04 |
| CC(C)C(C(=O)Nc1nccs1)c1ccc(Cl)cc1 (centres unmarked) | 1.57 |
| CC(=O)NCCCS(=O)(=O)O | 3.64 |
| COc1ccc(COc2ccc(Cc3cnc(N)nc3N)cc2OC)cc1 | 4.27 |
| NC(=S)N/N=C/c1ccncc1 | 4.48 |
| CC(=O)OCC(=O)[C@@]1(O)CC[C@H]2[C@@H]3CCC4=CC(=O)C=C[C@]4(C)[C@H]3[C@@H](O)C[C@@]21C | -1.09 |
| Nc1n[n+]([O-])c2ccccc2[n+]1[O-] | 1.59 |
| Cc1[nH]c2ccccc2c1C[C@@H](NC(=O)[C@@H](N)Cc1c[nH]cn1)C(=O)N[C@@H](C)C(=O)N[C@@H](Cc1c[nH]c2ccccc12)C(=O)N[C@H](Cc1ccccc1)C(=O)N[C@@H](CCCCN)C(N)=O | 2.64 |
| NS(=O)(=O)NCc1csc2ccccc12 | -1.54 |
| CCCCCOc1ccc(-c2cc(-c3ccc(C(=O)N[C@H]4C[C@@H](O)[C@@H](O)NC(=O)[C@@H]5[C@@H](O)[C@@H](C)CN5C(=O)[C@H]([C@H](O)CC(N)=O)NC(=O)[C@H]([C@H](O)[C@@H](O)c5ccc(O)c(OS(=O)(=O)O)c5)NC(=O)[C@@H]5C[C@@H](O)CN5C(=O)[C@H]([C@@H](C)O)NC4=O)cc3)no2)cc1 | 44.1 |
| CN(C)CCC(O)(c1ccccc1)c1ccccc1Cl (centres unmarked) | 7.27 |
| C#Cc1cnc2nc(O)n(C(CC)CC)c2n1 | 7.48 |
| CC(C)Cn1cnc2c(N)nc3ccccc3c21 | -2.31 |
| CCN1CCN(c2ccc(C(C)(C)NC(=O)c3cc4[nH]c5ccccc5c(=O)c4cc3F)cn2)CC1 | -4.08 |
| C[C@]12C=CC(=O)N[C@@H]1CC[C@@H]1[C@@H]2CC[C@]2(C)[C@@H](C(=O)Nc3cc(C(F)(F)F)ccc3C(F)(F)F)CC[C@@H]12 | 10.1 |

Single results of other studies
| SMILES | target | assay | conditions | quantity | result |
| --- | --- | --- | --- | --- | --- |
| C=CCN1CCc2cc(O)c(O)cc2C(c2ccccc2)C1 (centres unmarked) | Replicase polyprotein 1ab, main protease (rep, Severe acute respiratory syndrome coronavirus 2, UniProt P0DTD1) | enzyme activity | 20 µM, with DTT | inhibition | 4% |

A few entries again (single results of other studies):
| SMILES | target | assay | conditions | quantity | result |
| --- | --- | --- | --- | --- | --- |
| C=CCN1CCc2cc(O)c(O)cc2C(c2ccccc2)C1 (centres unmarked) | Replicase polyprotein 1ab, main protease (rep, Severe acute respiratory syndrome coronavirus 2, UniProt P0DTD1) | enzyme activity | 20 µM, with DTT | inhibition | 4% |
